Assay results from different studies.
Every numbered part comes from another study and shows a few of its results, in no order. Positions count from the first letter of the parent shown.

Study 1
Target: Histone acetyltransferase KAT6A, winged helix 2, GST fusion (KAT6A, Homo sapiens, UniProt Q92794, residues 85-181)
Method: protein binding microarray
Molecule type: double-stranded DNA, one strand shown
Sample: in vitro
Concentration: not given
Setting: 8-mer, flanks averaged, mean of 2 arrays, mostly near background
Reference: not given
Direction: higher = stronger binding
Target sequence (chain): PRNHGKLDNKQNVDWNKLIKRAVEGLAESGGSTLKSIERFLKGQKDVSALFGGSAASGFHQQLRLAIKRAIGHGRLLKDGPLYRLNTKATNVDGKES
Strand	E-score
ACGCACAG	0.0756
AGCATAGC	-0.0287
AGCCCCTA	-0.155
TGCCGCAA	0.0772
AAACTGTG	0.102
AACCACCT	-0.0246
ACCAATAC	-0.133
ACCTTTCC	-0.157
TCCGTCAA	-0.101
AACTGTGG	-0.00356
ATTTATAA	0.261
AATAGGGA	-0.0593
GCCGGGCC	0.197
AGATACAT	-0.142
ATTGAGTG	0.0107
CTCTAGGA	-0.0631

Study 2
Target: PABPC1L2, full length, GST fusion (mouse, UniProt A0ABA7IW68)
Method: RNAcompete
Molecule type: RNA
Sample: in vitro
Concentration: 20 nM
Setting: 7-mer, probes averaged, single round
Reference: mean of 7-mers
Direction: higher = stronger binding
Residues (chain): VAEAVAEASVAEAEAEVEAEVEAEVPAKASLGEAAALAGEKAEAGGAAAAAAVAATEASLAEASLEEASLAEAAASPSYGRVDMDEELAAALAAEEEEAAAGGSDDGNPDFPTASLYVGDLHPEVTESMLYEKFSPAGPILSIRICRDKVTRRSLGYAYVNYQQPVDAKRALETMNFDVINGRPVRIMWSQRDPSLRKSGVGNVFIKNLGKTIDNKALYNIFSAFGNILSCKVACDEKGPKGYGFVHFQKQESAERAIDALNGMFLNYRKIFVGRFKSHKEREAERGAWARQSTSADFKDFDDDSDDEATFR
Strand	7-mer Z-score
GUGGGAU	0.242
UUAACGU	-0.246
AGGGUGG	0.347
CUUGCGG	-0.151
CACAUAA	0.361
GGCCCAA	-0.141
CCUACAU	-0.144
UGCGCAG	-0.184
ACCGGAU	-0.112
ACACACU	0.0243
GACACAG	0.117
AGGGCCC	-0.079
AAAUGGA	1.4
CAGUGCC	-0.264
UACGAAA	0.695
AGACGAU	-0.208

Study 3
Target: ABI1, truncated, D143A, DHFR fusion (Arabidopsis thaliana)
Method: DHFR PCA, deep sequencing
Sample: yeast
Setting: methotrexate growth selection, single substitutions
Added: (+)-ABA 0.11 µM
Reference: wild-type fitted maximum
Direction: higher = stronger binding
Starting sequence: PYL1, truncated, DHFR fusion (Arabidopsis thaliana); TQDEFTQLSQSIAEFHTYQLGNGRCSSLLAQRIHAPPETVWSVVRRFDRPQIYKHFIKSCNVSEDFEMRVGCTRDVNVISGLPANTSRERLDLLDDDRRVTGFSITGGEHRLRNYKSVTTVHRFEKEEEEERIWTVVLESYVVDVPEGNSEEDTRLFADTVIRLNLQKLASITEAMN; partner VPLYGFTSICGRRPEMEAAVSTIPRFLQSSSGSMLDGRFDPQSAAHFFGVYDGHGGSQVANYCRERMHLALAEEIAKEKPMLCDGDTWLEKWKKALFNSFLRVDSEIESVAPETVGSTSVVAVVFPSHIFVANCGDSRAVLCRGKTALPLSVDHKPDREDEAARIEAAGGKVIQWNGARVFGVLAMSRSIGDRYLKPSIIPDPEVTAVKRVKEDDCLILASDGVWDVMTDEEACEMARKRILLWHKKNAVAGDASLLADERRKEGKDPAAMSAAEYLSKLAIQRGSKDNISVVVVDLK
Variant	relative binding score [%]
D92I	-0.491
T101G	-8.56
D3Q	52.9
L93Y	18.6
F15G	0.69
F66N	0.526
S117N	0.487
T1Q	26.4
V44R	0.345
N165S	7.99
K58S	8.43
D144P	-2.14
R98M	11.1
Q2S	30.4
H34L	30.4
A13N	35.8

Study 4
Target: RNA binding protein fox-1 homolog 2, RRM domain, GST-SBP tag (RBFOX2, Homo sapiens, UniProt O43251-10, residues 100-194)
Method: RNA Bind-n-Seq
Molecule type: RNA
Sample: in vitro
Concentration: 365 nM
Setting: natural RNA segment, single round, ends assumed
Reference: no-protein control
Direction: higher = stronger binding
Target sequence (chain): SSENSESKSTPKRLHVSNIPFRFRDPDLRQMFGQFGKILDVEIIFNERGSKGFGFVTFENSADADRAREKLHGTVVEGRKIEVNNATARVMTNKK
Strand	RBNS enrichment (R)
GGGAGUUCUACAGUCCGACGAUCAUCUAUCAUAUAGAGCUAUAUGUAUGGAAAAUUUUGAUCAAUUUUUUAAGAAAUGUAUCCUGUUUGCAAAGGCACAGUAAAGUUGCAUCUUAUAGACUAUAGGCAAUAAAUGGAAUUCUCGGGUGCCAA	0.484
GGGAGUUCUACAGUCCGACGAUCGUAAAAUAUUGAAGUGUCUAACAAAUGGCAUUGAAGUGUCUUUAAUAAAGGUUCAUUUAUAAAUGUCGUAUAGUUGGUGGUCCUUCUUUUACAAACGCAGUCAUUCUGCCUGGAAUUCUCGGGUGCCAA	0.245
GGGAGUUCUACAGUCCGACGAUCCAUCCCACCCACUGCCUCUGAAGAGCUGUAGAGCAACCUGCUUUUGGCAUGGGUGGAUGGAUUUUUAAGUUGGUUUCCCAGUCAAGUUAUAUUUAAUUAAGGGACUAGUUUGGAAUUCUCGGGUGCCAA	0.39
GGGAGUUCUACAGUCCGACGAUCUCCAUCUGAGCAAACAGGUAAUUUAAGCAUUUAUCUCCCCUUUCACUUUCAAAAAGAAUCAUCAUUGAUUAUUCUUGUUUCACAUCUGAGGAUGAAGGCUAACGGCUGUGUGGAAUUCUCGGGUGCCAA	0.566
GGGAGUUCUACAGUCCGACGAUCUGUAUUAGAAAUGCAAGUUCCCAGCCCCAUCCCAGACCUACUGAAUCAGAAACUCUGGGGGCGAGGGCUGAAACCUGCUUUCAUAAGCCCUUCAGGCGAUACUGAUGUAAUGGAAUUCUCGGGUGCCAA	0.264
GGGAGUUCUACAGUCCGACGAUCCACCUGUACCUCCCUAUGUCCCCAUCCUUGCCCAGUCUCGACGUGCACCAAGGGCACAAGAGUGGCAGUCCAGAUCUGCCACUUGUUUUAAUAAAGCCUUCUCUCUCACCUGGAAUUCUCGGGUGCCAA	0.974
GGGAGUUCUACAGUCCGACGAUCCUGUACCCAUGAACUCCCAGUUUGCGAAUUAUAGAGACAAUCUAUUUUGUUACUUGCACUUGUUAUUCGAACCACUGAGAGCGAGAUGGGAAGCAUAGAUAUCUAUAUUUUGGAAUUCUCGGGUGCCAA	0.527
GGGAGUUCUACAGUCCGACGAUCAAGCACAAAGGCCAGCGUGACAGCAGCGCCAUGCUCAUCCCCCUCACAGGACACUUCACUGCCAUUUUCUAUGCACAUGGAAGAAUAAUAAAUGUGGAAAUUUCAUCCUGUGGAAUUCUCGGGUGCCAA	0.438
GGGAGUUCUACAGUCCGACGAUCACAUGGAAAAUUCAAGGAUUGUUUAAAGGUCUGAUGAUCACACACAAAAUGUAAUUCCGGUUAUUUAAGUCAUUUCUGUGAUUCUAUCAUGUACAGUUUCCAGAAUUGUCUGGAAUUCUCGGGUGCCAA	0.388
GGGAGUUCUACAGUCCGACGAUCUGUGGAGGGACAACAGAGAGCAGUGUAUCUGAGUAAGAUGCACACAUCGAAGUGCGUUCAAAGUCUGUGUCUAGGUAUAUAUGUCCGUGUAGCUCUCUCCUUUUGUUUACUGGAAUUCUCGGGUGCCAA	0.466
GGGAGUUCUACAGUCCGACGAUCGAGGGCACAACACUUUCAUUCAGCAAAAUCGUUUGUGUUCCAGUCACACUGUGGGCACCUCUUGCAUCGCCUGCCAUUGCUGUGGAGGGUGGCCAUGGGCCAAAGGAAAAUGGAAUUCUCGGGUGCCAA	1.41
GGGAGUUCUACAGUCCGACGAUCUGGCUGCCAGUAGCAGGCCUGGCAUGGCGUGACGGGAGGGGCCUAAUUACCUAGCUGUUGCUGGACACCAGCUGUGCAUACCUGAGCAUGCCCAGUGCAUGUUGGGUCCAUGGAAUUCUCGGGUGCCAA	3.87

Study 5
Target: Sal-like protein 4, full length isoform A (SALL4, Homo sapiens, UniProt Q9UJQ4, residues 1-1053)
Chain of UniProt Q9UJQ4 (whole entry, looked up): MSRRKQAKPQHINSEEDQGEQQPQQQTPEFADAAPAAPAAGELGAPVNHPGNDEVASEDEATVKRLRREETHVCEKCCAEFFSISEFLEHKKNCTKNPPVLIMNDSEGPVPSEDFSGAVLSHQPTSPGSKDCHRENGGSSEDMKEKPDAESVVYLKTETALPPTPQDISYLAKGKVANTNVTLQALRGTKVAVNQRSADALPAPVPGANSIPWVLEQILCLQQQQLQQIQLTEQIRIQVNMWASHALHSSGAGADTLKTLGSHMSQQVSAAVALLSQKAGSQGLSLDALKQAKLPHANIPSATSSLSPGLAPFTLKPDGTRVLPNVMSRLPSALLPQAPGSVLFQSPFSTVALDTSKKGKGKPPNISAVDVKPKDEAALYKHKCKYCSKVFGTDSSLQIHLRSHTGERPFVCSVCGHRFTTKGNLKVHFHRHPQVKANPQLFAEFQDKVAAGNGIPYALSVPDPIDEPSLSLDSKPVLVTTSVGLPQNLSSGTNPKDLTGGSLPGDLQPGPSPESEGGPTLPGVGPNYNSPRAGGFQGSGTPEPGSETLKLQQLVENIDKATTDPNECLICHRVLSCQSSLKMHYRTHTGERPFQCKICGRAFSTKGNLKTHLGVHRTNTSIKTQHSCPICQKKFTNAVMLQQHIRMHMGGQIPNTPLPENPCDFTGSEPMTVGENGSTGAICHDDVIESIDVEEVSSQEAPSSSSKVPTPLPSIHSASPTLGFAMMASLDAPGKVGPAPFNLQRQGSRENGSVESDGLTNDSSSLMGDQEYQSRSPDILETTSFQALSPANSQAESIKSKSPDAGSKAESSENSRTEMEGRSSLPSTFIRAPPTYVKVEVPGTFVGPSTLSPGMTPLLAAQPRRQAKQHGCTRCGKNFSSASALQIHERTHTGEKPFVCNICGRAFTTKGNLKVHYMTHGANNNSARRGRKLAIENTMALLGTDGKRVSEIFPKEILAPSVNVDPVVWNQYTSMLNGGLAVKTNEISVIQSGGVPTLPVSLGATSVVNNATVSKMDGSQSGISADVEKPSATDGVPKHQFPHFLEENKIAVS
Method: universal PBM
Molecule type: double-stranded DNA, one strand shown
Sample: in vitro
Concentration: 600 nM
Setting: 8-mer, flanks averaged, mean of replicates
Direction: higher = stronger binding
Strand	E-score
AAATAGGT	0.233
GATCGGCA	-0.0914
AGGCCTAG	-0.146
CCCGCGCG	-0.274
CCTTATTC	0.159
ACTCATAC	0.223
AGCCAGAA	-0.159
TAACTCCA	0.0148
ACTAATGC	0.115
ACGTGTAT	0.1
GCCCTCAC	-0.216
ACATTGGG	-0.0361
CGTACATC	-0.0512
CACGAGTG	-0.182
GGGTATGA	0.0346
ATCCGCCA	-0.158
AGAAGTCA	0.108
CGATGCGC	-0.102
AGATACCT	-0.0877
AGATCTCG	-0.12
GATTAAAC	0.0912
CGATCGAG	-0.161
GCTTTCCA	-0.0476
GTCTCGTA	-0.0257
AGGCCTCC	-0.104

Repeated from above (study 2):
Strand	7-mer Z-score
CCUACAU	-0.144
CACAUAA	0.361
AAAUGGA	1.4
UACGAAA	0.695
GGCCCAA	-0.141
ACCGGAU	-0.112
UUAACGU	-0.246
AGGGCCC	-0.079
AGACGAU	-0.208
GUGGGAU	0.242
GACACAG	0.117
